Results collected from several papers.
Each numbered part is a random draw from the data of one study; scales do not carry over between parts.
UniProt P31751, sequence (whole entry, looked up): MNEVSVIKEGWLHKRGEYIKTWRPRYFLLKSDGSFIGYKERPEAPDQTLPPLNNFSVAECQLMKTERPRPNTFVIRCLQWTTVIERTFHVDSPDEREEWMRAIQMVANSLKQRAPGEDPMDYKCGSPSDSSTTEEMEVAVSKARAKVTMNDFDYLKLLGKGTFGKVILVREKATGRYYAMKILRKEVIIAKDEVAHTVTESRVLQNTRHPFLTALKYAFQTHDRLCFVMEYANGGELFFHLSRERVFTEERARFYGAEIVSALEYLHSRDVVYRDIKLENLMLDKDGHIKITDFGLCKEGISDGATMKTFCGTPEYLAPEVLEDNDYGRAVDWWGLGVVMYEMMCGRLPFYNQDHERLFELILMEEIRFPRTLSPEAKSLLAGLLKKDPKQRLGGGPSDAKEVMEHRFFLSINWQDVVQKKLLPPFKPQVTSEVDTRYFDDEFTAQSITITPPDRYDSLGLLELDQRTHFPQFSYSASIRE
UniProt Q96L34, sequence (whole entry, looked up): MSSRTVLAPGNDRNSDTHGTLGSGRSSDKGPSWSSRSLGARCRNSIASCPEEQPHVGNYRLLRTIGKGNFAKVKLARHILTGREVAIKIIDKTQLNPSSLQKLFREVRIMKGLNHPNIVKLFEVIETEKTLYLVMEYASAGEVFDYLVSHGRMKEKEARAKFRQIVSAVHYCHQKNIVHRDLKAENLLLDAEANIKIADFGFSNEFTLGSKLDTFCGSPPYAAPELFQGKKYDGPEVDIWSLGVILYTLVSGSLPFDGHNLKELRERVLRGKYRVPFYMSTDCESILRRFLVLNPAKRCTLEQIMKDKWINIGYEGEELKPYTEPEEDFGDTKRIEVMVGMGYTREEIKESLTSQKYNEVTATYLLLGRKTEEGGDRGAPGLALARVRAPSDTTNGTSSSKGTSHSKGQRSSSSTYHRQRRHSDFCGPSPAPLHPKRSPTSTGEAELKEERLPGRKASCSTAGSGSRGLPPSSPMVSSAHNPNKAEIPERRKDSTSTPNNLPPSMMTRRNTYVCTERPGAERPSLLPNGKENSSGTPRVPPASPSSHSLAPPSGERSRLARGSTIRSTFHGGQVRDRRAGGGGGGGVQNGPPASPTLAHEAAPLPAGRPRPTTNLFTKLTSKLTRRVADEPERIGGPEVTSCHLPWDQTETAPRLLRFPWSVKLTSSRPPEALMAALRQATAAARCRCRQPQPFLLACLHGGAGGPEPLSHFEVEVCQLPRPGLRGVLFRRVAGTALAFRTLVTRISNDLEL
UniProt Q6P2M8, sequence (whole entry, looked up): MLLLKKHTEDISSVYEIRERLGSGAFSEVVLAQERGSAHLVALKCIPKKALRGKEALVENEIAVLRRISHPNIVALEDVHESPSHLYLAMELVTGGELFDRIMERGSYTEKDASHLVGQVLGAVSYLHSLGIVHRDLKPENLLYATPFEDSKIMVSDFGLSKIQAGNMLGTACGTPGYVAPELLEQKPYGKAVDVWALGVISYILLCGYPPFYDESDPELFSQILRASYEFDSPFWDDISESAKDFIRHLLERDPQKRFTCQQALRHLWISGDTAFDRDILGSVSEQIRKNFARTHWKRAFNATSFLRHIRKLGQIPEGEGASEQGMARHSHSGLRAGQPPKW
UniProt P50750, sequence (whole entry, looked up): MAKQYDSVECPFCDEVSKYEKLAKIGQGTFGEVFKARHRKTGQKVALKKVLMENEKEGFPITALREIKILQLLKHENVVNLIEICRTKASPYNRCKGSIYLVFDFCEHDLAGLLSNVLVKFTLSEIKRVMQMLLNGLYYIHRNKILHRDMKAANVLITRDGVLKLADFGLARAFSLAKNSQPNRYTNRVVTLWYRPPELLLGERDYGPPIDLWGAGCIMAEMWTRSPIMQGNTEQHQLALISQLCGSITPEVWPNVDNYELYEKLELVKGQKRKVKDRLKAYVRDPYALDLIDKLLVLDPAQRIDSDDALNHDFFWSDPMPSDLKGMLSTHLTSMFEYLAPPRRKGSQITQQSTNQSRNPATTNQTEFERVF
UniProt P36507, sequence (whole entry, looked up): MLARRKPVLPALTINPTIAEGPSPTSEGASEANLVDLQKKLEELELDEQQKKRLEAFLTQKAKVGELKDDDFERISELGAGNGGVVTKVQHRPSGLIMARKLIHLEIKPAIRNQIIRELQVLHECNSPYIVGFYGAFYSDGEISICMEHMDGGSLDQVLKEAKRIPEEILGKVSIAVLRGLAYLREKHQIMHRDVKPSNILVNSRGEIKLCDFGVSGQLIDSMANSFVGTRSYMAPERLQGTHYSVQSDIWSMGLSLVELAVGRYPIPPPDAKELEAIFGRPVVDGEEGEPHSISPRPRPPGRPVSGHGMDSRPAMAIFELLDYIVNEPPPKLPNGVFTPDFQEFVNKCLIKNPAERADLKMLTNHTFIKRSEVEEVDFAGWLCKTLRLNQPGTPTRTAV
UniProt P49761, sequence (whole entry, looked up): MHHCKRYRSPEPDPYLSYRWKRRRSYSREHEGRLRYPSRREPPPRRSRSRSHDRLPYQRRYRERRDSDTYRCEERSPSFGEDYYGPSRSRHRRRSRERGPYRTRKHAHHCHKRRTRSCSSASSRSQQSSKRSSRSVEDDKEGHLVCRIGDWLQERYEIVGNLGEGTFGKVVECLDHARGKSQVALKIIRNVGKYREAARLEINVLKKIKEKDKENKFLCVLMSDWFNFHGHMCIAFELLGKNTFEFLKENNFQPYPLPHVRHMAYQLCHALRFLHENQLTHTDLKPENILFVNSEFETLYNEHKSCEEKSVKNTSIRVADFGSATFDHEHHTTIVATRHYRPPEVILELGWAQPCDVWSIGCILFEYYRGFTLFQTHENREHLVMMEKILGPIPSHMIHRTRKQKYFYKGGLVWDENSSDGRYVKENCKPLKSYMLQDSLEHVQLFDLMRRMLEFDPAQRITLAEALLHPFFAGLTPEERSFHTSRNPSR
UniProt P21860, sequence (whole entry, looked up): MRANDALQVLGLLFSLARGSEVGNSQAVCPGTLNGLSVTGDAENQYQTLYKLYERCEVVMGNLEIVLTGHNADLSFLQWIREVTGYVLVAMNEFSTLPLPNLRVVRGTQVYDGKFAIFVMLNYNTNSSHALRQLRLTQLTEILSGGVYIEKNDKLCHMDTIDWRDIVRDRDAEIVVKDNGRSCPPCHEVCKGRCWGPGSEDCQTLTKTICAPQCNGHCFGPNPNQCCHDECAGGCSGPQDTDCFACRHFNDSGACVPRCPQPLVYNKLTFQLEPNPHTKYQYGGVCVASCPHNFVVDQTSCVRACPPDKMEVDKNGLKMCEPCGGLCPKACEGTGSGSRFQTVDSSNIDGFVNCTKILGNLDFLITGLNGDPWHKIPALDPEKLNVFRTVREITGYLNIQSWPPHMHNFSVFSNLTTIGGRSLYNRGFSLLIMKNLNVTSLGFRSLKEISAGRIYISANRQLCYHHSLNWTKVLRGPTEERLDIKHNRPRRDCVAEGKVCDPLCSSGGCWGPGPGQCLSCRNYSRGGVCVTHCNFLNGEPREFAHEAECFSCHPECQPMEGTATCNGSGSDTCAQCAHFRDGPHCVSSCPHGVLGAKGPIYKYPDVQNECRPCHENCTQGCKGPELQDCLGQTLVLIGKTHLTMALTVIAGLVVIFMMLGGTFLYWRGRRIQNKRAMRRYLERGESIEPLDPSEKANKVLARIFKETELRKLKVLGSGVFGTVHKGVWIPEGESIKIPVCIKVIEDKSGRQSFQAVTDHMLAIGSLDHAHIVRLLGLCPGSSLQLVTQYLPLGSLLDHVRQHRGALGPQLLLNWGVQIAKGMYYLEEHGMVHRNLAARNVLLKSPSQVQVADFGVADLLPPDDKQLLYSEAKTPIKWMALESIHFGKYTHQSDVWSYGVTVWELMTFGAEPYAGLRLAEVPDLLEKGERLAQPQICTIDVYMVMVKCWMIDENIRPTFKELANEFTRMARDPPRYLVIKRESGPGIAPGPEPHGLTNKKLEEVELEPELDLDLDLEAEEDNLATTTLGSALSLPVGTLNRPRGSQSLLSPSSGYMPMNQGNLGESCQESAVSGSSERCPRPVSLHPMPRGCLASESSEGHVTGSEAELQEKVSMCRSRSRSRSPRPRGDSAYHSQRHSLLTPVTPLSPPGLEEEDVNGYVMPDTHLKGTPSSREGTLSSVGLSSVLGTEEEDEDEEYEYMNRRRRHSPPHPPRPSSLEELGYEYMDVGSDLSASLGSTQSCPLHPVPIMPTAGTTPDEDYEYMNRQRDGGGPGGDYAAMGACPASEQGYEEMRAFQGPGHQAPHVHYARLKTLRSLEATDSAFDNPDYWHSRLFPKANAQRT
UniProt P06493, sequence (whole entry, looked up): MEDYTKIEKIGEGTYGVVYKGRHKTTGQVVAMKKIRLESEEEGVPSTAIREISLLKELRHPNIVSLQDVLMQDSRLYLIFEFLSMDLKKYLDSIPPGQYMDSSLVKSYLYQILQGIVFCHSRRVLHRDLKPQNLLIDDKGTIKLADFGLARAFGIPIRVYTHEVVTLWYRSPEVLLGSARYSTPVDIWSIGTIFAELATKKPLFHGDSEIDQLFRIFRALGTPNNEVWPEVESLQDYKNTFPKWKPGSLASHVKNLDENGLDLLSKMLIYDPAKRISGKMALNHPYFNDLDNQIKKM
UniProt P51956, sequence (whole entry, looked up): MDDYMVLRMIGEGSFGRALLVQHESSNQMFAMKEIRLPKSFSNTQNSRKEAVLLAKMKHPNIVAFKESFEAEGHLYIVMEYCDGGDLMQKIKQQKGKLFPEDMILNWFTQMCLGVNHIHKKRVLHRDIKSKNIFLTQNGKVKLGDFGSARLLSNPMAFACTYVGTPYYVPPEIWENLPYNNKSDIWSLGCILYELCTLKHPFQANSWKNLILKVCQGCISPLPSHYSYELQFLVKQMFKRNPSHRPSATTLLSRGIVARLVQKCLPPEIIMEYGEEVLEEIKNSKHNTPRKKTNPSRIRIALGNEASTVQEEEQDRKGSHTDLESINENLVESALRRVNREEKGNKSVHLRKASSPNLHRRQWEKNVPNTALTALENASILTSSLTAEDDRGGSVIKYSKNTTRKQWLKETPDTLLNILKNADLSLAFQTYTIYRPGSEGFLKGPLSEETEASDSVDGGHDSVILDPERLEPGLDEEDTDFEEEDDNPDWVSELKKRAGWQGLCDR

Sample 1 — observed: cell-free assay; technique: competition with immobilised ligand; tested at: 1 µM
SMILES: Cn1nc(C(F)(F)F)cc1-c1cnc(N2CCc3cc(S(=O)(=O)Nc4c(F)cc(Cl)cc4F)cc(N4CCCC4=O)c32)nc1
It gave 100% for remaining binding (MAP3K11 (Homo sapiens, UniProt Q16584)).
For PIKFYVE (Homo sapiens, UniProt Q9Y2I7): remaining binding read 88%.
It gave 100% for remaining binding (RIPK1 (Homo sapiens, UniProt Q13546)).
MYLK (Homo sapiens, UniProt Q15746) — remaining binding: 100%.
It gave 84% for remaining binding (MAP2K2 (Homo sapiens, UniProt P36507)).
For ERBB3 (Homo sapiens, UniProt P21860): remaining binding read 93%.
The remaining binding was 100% (TNIK (Homo sapiens, UniProt Q9UKE5)).
It gave 90% for remaining binding (CLK4 (Homo sapiens, UniProt Q9HAZ1)).
DCLK3 (Homo sapiens, UniProt Q9C098) — remaining binding: 86%.

Sample 2 — organism: Plasmodium berghei; mode: inhibitor; cells: Huh-7; strain: GFP-expressing, liver stage; tested at: 10 µM; time: 24 h; baseline: untreated control
For CCCc1nc(C)c2c(O)nc(-c3cc(S(=O)(=O)N4CCN(CC)CC4)ccc3OCC)nn12, the infection rate was 63.3%.
The infection rate of CC(CN(C)C)CN1c2ccccc2CCc2ccccc21 (stereo not drawn) is reported as 85%.
COc1cc2nc(N3CCN(C(=O)C4CCCO4)CC3)nc(N)c2cc1OC (stereo not drawn) has an infection rate of 83.2%.
For CCOC(=O)C1=C[C@@H](OC(CC)CC)[C@H](NC(C)=O)[C@@H](N)C1, the infection rate was 101%.
For CCCN(CCC)CCc1cccc2c1CC(=O)N2, the infection rate was 109%.
For NS(=O)(=O)c1cc2c(cc1Cl)NC(C(Cl)Cl)NS2(=O)=O (stereo not drawn), the infection rate was 88.2%.

Sample 3 — technique: phase 2a clinical trial
Structure (SMILES): CC(C)n1cnc(-c2ccc(F)cc2)c1-c1ncc(C(=O)Nc2ccc(N3CCN(C)CC3)cc2)[nH]1
Species: patients with idiopathic pulmonary fibrosis
It gave 0% for “patients with treatment-emergent adverse events” (item: gastro-oesophageal reflux disease; dose not given, Grade 4, all drug arms total).
The “patients with treatment-emergent adverse events” was 0% (item: electrocardiogram T wave abnormal; 30 mg once daily, Grade 1).
It gave 0% for “patients with treatment-emergent adverse events” (item: interstitial lung disease; 60 mg once daily, Grade 5).
It gave 0% for “patients with treatment-emergent adverse events” (item: first degree atrioventricular block; dose not given, Grade 2, all drug arms).
For item: lumbar vertebral fracture; 30 mg once daily, Grade 5, maximum intensity: “patients with treatment-emergent adverse events” read 0%.
item: left bundle branch block; 30 mg once daily, Grade 5 — “patients with treatment-emergent adverse events”: 0%.
For item: lumbar vertebral fracture; 30 mg once daily, Grade 3, maximum intensity: “patients with treatment-emergent adverse events” read 0%.
It gave 0% for “patients with treatment-emergent adverse events” (item: electrocardiogram T wave abnormal; 30 mg once daily, Grade 4).
item: metabolism and nutrition disorders (SOC); 60 mg once daily, Grade 4 — “patients with treatment-emergent adverse events”: 0%.
item: left ventricular dysfunction; 30 mg once daily, Grade 3 — “patients with treatment-emergent adverse events”: 0%.
It gave 0% for “patients with treatment-emergent adverse events” (item: left bundle branch block; 60 mg once daily, Grade 4).

Sample 4 — SMILES: O=C1Cc2c([nH]c3ccc(Br)cc23)-c2ccccc2N1; observed: enzyme activity; mode: inhibitor; tested at: 0.5 µM; baseline: control
It gave 88.5% for remaining activity (Cyclin-dependent kinase 1, with cyclin A (CDK1, Homo sapiens, UniProt P06493)).
It gave 98.4% for remaining activity (DDR2 (Homo sapiens, UniProt Q16832)).
It gave 108% for remaining activity (RPS6KA4 (Homo sapiens, UniProt O75676)).
It gave 97.9% for remaining activity (GRK4 (Homo sapiens, UniProt P32298)).
PNCK (Homo sapiens, UniProt Q6P2M8) — remaining activity: 99.6%.
The remaining activity was 104% (AKT2 (Homo sapiens, UniProt P31751)).
For MARK4 (Homo sapiens, UniProt Q96L34): remaining activity read 60.2%.
The remaining activity was 96.2% (NEK3 (Homo sapiens, UniProt P51956)).
Cyclin-dependent kinase 9, with cyclin K (CDK9, Homo sapiens, UniProt P50750) — remaining activity: 31.5%.
For CLK3 (Homo sapiens, UniProt P49761): remaining activity read 99.3%.
For PRKG2 (Homo sapiens, UniProt Q13237): remaining activity read 101%.
It gave 96.6% for remaining activity (PAK3 (Homo sapiens, UniProt O75914)).
TXK (Homo sapiens, UniProt P42681) — remaining activity: 82.6%.

Excerpt of the above (sample 2):
For CCCN(CCC)CCc1cccc2c1CC(=O)N2, the infection rate was 109%.
For NS(=O)(=O)c1cc2c(cc1Cl)NC(C(Cl)Cl)NS2(=O)=O (stereo not drawn), the infection rate was 88.2%.
For CCCc1nc(C)c2c(O)nc(-c3cc(S(=O)(=O)N4CCN(CC)CC4)ccc3OCC)nn12, the infection rate was 63.3%.
For CCOC(=O)C1=C[C@@H](OC(CC)CC)[C@H](NC(C)=O)[C@@H](N)C1, the infection rate was 101%.
The infection rate of CC(CN(C)C)CN1c2ccccc2CCc2ccccc21 (stereo not drawn) is reported as 85%.
